Results collected from several papers.
Compare with care: the assays were run in different laboratories. Numbers after ± are the reported error.
RET: Proto-oncogene tyrosine-protein kinase receptor Ret (RET, Homo sapiens, UniProt P07949)
UniProt P07949, sequence (whole entry, looked up): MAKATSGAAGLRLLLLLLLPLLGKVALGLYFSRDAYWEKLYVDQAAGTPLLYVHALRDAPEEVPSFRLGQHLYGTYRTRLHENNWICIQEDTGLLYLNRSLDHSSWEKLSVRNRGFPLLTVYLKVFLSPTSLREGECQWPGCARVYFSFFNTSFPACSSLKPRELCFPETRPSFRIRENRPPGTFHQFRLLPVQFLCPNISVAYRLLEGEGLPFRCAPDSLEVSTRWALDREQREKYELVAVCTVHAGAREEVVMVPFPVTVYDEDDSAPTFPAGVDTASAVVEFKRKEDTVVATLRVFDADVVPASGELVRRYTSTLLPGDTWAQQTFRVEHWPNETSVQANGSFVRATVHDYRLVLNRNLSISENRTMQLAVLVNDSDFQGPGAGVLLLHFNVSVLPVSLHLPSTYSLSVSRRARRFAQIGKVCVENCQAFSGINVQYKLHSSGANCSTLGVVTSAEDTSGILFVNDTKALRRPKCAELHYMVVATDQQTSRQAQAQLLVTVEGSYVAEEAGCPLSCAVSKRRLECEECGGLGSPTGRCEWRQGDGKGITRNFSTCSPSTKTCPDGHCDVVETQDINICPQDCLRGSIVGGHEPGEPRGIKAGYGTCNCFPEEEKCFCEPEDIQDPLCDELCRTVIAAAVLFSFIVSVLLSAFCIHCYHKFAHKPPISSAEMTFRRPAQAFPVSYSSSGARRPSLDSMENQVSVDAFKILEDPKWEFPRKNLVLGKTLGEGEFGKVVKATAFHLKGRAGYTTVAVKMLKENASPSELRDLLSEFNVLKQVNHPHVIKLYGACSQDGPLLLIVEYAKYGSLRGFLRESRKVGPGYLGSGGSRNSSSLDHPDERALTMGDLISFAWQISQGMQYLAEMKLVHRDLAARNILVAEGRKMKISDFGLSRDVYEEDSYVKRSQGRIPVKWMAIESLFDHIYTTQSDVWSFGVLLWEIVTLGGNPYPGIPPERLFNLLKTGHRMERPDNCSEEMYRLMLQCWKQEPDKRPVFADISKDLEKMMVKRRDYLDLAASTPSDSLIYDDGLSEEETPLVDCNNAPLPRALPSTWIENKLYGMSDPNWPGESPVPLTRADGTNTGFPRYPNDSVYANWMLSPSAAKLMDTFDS
CHEK2: Serine/threonine-protein kinase Chk2 (CHEK2, Homo sapiens, UniProt O96017)
UniProt O96017, sequence (whole entry, looked up): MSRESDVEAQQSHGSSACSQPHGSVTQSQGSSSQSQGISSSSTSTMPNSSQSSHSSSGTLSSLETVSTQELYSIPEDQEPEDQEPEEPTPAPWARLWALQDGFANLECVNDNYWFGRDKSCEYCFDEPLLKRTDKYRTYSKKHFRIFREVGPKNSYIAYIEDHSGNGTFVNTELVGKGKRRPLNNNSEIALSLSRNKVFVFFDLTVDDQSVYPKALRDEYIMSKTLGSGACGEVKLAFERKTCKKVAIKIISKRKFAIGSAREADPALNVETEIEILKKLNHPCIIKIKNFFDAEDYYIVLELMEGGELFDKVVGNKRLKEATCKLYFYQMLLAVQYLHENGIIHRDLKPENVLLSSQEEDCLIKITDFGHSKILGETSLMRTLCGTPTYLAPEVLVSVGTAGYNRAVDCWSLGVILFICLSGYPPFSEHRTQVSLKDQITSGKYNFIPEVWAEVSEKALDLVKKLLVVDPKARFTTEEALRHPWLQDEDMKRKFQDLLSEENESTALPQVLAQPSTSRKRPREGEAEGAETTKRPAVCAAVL
MAP2K2: Dual specificity mitogen-activated protein kinase kinase 2 (MAP2K2, Homo sapiens, UniProt P36507)
UniProt P36507, sequence (whole entry, looked up): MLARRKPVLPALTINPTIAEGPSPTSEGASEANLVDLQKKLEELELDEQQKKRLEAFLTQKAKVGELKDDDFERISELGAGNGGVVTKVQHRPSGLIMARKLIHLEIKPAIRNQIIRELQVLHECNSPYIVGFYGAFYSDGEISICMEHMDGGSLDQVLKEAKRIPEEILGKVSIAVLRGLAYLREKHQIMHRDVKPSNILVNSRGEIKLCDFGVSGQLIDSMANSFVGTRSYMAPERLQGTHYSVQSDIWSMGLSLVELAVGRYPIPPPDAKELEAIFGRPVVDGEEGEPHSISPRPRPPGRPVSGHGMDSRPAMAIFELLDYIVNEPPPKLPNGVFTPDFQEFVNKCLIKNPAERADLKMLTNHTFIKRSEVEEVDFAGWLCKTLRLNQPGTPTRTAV
UniProt P33424, sequence (whole entry, looked up): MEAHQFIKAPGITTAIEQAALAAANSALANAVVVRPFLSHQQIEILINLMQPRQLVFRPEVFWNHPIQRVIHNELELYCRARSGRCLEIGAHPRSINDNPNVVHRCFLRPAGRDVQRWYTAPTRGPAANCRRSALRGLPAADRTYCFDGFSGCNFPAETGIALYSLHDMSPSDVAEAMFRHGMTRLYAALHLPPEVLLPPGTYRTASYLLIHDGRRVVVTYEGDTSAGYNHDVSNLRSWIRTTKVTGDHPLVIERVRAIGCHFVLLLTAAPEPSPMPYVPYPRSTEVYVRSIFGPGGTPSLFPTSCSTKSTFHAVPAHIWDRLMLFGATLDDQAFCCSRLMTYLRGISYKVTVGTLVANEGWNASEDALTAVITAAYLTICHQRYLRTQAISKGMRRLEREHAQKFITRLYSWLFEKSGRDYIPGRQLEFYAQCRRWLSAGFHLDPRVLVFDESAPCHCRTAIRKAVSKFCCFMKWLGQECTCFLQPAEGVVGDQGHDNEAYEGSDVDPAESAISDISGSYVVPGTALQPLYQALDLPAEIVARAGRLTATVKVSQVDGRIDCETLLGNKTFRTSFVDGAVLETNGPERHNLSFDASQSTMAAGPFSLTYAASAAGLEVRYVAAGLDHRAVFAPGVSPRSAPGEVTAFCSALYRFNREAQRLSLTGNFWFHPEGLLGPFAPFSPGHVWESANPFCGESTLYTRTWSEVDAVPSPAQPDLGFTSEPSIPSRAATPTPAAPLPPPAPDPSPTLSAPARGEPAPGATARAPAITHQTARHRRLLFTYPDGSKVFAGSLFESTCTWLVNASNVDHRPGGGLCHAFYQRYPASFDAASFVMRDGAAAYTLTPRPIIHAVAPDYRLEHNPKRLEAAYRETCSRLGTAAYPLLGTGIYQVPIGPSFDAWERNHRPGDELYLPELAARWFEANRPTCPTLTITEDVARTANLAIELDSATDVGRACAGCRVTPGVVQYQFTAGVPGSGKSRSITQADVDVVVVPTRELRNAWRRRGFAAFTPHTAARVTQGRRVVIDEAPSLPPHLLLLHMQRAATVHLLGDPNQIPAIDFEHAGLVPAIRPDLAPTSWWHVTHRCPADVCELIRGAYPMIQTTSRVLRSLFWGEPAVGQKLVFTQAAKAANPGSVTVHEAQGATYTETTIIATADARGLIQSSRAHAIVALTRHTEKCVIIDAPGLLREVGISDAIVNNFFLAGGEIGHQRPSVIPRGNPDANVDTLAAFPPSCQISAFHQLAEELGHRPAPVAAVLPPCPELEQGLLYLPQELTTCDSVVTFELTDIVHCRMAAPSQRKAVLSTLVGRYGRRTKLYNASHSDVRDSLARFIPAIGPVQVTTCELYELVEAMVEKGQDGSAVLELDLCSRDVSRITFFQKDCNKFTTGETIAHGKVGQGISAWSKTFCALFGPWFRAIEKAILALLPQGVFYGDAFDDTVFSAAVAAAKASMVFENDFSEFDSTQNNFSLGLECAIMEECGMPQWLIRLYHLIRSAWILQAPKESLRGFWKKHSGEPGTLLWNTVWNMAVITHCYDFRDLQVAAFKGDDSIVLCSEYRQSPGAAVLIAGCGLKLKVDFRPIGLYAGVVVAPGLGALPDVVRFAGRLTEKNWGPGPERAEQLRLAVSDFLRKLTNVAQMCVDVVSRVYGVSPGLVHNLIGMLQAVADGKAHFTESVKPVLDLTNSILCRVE
UniProt Q695T7, sequence (whole entry, looked up): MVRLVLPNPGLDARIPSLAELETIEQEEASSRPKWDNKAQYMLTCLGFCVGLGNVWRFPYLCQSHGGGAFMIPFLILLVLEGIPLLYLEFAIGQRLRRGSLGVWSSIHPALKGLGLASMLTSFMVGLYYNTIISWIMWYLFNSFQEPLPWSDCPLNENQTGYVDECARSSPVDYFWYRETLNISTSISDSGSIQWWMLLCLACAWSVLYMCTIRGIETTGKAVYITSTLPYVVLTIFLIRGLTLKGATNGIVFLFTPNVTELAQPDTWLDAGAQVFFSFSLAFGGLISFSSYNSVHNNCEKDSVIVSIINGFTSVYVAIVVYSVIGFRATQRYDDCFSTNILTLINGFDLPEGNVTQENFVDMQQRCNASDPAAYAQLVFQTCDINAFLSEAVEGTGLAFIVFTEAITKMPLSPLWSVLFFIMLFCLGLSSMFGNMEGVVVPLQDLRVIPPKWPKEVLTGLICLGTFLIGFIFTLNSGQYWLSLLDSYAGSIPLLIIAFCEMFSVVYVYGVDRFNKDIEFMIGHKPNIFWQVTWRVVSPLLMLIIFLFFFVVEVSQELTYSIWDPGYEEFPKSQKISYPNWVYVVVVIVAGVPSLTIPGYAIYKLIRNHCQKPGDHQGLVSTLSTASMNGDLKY
UniProt P28074, sequence (whole entry, looked up): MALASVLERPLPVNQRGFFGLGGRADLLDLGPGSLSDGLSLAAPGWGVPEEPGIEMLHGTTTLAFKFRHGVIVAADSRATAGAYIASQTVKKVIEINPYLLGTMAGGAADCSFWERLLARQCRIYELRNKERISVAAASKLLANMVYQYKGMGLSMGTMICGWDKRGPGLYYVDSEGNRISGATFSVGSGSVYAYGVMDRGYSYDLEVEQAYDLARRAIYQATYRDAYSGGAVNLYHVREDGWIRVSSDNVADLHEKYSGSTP
UniProt P45983, sequence (whole entry, looked up): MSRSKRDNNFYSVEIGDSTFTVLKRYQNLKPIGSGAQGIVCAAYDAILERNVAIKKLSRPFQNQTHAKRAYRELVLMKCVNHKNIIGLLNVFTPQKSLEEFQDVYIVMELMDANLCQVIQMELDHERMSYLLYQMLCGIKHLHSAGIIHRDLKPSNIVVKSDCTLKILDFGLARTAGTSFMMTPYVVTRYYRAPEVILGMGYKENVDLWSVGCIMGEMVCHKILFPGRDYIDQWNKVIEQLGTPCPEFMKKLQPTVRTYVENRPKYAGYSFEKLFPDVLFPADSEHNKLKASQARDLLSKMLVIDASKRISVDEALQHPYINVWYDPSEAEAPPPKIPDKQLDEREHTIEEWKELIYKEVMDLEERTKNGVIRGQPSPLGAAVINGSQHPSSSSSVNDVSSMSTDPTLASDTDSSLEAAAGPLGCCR

The remaining activity of COc1cc(N2CCN(C)CC2)ccc1Nc1nc(N)n(C(=S)NCc2c(Cl)cccc2Cl)n1 is reported as 12% (PI4KB (Homo sapiens, UniProt Q9UBF8); enzyme activity; 10 µM; reference: control).
Nc1ncc2c(n1)-c1c([nH]c3ccc(-c4ccc(F)cc4)cc13)CCC2 gave a remaining activity of 88% (TAOK3 (Homo sapiens, UniProt Q9H2K8); kinase activity, inhibitor, radiometric; 1 µM, added: ATP at Km).
For CC#CC(=O)N1CCC[C@H]1c1nc(-c2ccc(C(=O)Nc3ccccn3)cc2)c2c(N)nccn12, the remaining activity was 80.8 ± 1.1% (PTK6 (Homo sapiens, UniProt Q13882); kinase activity, inhibitor, HotSpot radiometric; 100 nM, added: ATP 10 µM).
With NC/C(=C\F)COc1cccc(Cn2c(=S)[nH]c(=O)c3[nH]cnc32)c1 the remaining activity was 98.8% (Peroxidasin homolog (PXDN, Homo sapiens, UniProt Q92626); Amplex UltraRed; 0.625 µM, mean of replicates; reference: control).
Oc1cccc(-c2nc(N3CCOCC3)c3oc4ncccc4c3n2)c1 gave a remaining activity of 100% (CSNK1D (Homo sapiens, UniProt P48730); enzyme activity; 10 µM).
With Cc1cc(Nc2cc(N3CCN(C)CC3)nc(Sc3ccc(NC(=O)C4CC4)cc3)n2)[nH]n1 the remaining activity was 58% (RET; kinase activity, KinaseProfiler; 0.03 µM, species human; reference: control).
With COc1cc(F)ccc1-c1ncnc(Nc2cccc(C[S@](C)(=N)=O)c2)n1 the remaining activity was 78% (AXL (Homo sapiens, UniProt P30530); kinase activity; 10 µM, added: 10 µM ATP).
CNc1ncc2c(/C=C/C(=O)N3CCC(OC)CC3)nn(Cc3cccc(C(F)(F)F)c3)c2n1 gave a remaining activity of 97% (RPS6KB1 (Homo sapiens, UniProt P23443); kinase activity, inhibitor; 1 µM; reference: untreated control).
O=C1NC(=O)/C(=C/c2ccc(-c3ccc(F)cc3O)o2)S1 gave a remaining activity of 53% (CHEK2; enzyme activity; 10 µM).
COc1cc(-c2cncc3c2CN(C)Cc2cc(N4CCNCC4)ccc2-3)cc(OC)c1OC has a remaining activity of 102% (PIK3C2G (Homo sapiens, UniProt O75747); kinase activity; 1 µM, human enzyme, added: ATP 10 µM; reference: DMSO control).
For O=C(O)c1ccc(Nc2ncc3c(n2)-c2ccc(Cl)cc2C(c2c(F)cccc2F)=NC3)cc1, the remaining activity was 101% (LKB1(h); kinase activity; 1 µM).
The remaining activity of Cc1cc(NC(=O)c2cccc(NC(=O)/C=C/CN(C)C)c2)ccc1Nc1nccc(-c2cccnc2)n1 is reported as 0.531 (MAPK8 (Homo sapiens, UniProt P45983); enzyme activity, inhibitor; 4.938 µM, 18 h, unit not given, added: GSH 10 mM pre-incubation; reference: vehicle).
With C=CC(=O)N1CCC([C@@H]2CCNc3c(C(N)=O)c(-c4ccc(Oc5ccccc5)cc4)nn32)CC1 the remaining activity was 55.1 ± 0.4% (MAP2K2; kinase activity, inhibitor, HotSpot radiometric; 100 nM, added: ATP 10 µM).
C[C@H]1[C@H](OC(=O)CCC(=O)O)O[C@@H]2O[C@@]3(C)CC[C@H]4[C@H](C)CC[C@@H]1[C@@]24OO3 gave a remaining activity of 82.9% (Non-structural polyprotein pORF1, helicase domain (Hepatitis E virus genotype 1, UniProt P33424); ATPase activity, inhibitor, colorimetric; 9.7 µM; reference: untreated).
COc1cc(Nc2ncc3c(n2)-c2ccc(Cl)cc2C(c2c(F)cccc2OC)=NC3)ccc1C(=O)O gave a remaining activity of 100% (PAK6; kinase activity; 1 µM).
The remaining activity of O.[Fe+2].c1ccc(CN(CCN(Cc2ccccn2)Cc2ccccn2)Cc2ccccn2)cc1 is reported as ~70% (PSMB5 (Homo sapiens, UniProt P28074); 20S proteasome activity, inhibitor; 10 µM, incubation start, room temperature, aerobic without DTT).
COc1cc(Nc2cnc(C#N)c(O[C@H](C)CN(C)C)n2)ncc1-c1cnn(C)c1 gave a remaining activity of 86% (human phosphorylase kinase; radiometric; 1 µM).
C=CC(=O)N1CCC[C@@H](n2nc(-c3ccc(Oc4ccccc4)cc3)c3c(N)ncnc32)C1 has a remaining activity of 141% (RET; 0.1 µM).
C[C@@H](Oc1ccc(S(C)(=O)=O)cc1C(=O)N1C[C@@H]2C[C@]2(c2cc(C(F)(F)F)on2)C1)C(F)(F)F gave a remaining activity of 10.2% (SLC6A9 (Homo sapiens, UniProt P48067, L476T); glycine uptake, inhibitor, [3H]glycine uptake; 0.005 µM, L422T mutant, log concentration 5, added: [3H]glycine; reference: no inhibitor).
COc1ccc(F)cc1C(=O)NCc1ccc(-c2nn([C@@H](C)C(F)(F)F)c(N)c2C(N)=O)cc1 has a remaining activity of 67.8 ± 0.2% (MAP2K2; kinase activity, inhibitor, HotSpot radiometric; 100 nM, added: ATP 10 µM).
For CCNC(=O)/C=C/c1cccc(Br)c1, the remaining activity was 0.454 (SLC6A19 (Homo sapiens, UniProt Q695T7); membrane potential transport, inhibitor, FLIPR membrane potential; CHO-BC cells; 100 µM, unit not given; reference: control).
The remaining activity of O=C(NC1CCC1)c1ccc2nc(-c3cccc(NS(=O)(=O)NCCN4CCCCC4)c3)cn2c1 is reported as 94% (CHEK2; enzyme activity; 10 µM).
C=CC(=O)N1CCC[C@@H](n2nc(-c3ccc(Oc4ccccc4)cc3)c3c(N)ncnc32)C1 gave a remaining activity of 66.9 ± 1.5% (RET; kinase activity, inhibitor, HotSpot radiometric; 100 nM, added: ATP 10 µM).

Repeated from above:
C=CC(=O)N1CCC[C@@H](n2nc(-c3ccc(Oc4ccccc4)cc3)c3c(N)ncnc32)C1 gave a remaining activity of 66.9 ± 1.5% (RET; kinase activity, inhibitor, HotSpot radiometric; 100 nM, added: ATP 10 µM).
